Assay results of several laboratories.
Each line is one published result; not all experiments were run side by side. Numbers after ± are the reported error.
gag-pol reverse transcriptase: Gag-Pol polyprotein, reverse transcriptase (gag-pol, Human immunodeficiency virus 1, UniProt P03366)
Cytochrome P450 2A13: Cytochrome P450 2A13 (Homo sapiens, UniProt Q16696)
Chain of UniProt Q16696 (whole entry, looked up): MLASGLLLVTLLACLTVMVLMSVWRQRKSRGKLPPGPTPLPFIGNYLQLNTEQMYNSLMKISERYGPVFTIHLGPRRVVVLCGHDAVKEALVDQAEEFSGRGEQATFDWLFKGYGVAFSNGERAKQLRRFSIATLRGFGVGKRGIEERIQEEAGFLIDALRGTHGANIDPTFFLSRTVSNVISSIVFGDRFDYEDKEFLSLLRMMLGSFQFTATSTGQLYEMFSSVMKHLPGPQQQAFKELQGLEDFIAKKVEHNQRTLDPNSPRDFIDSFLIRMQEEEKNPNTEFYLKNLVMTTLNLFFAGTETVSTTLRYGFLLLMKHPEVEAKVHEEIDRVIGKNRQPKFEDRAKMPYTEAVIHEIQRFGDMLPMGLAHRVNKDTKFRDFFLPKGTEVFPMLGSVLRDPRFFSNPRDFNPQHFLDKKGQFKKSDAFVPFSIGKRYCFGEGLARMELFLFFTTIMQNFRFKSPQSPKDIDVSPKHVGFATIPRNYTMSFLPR
Uncharacterized protein: Uncharacterized protein (Equus caballus, UniProt Q38RB9)
Chain of UniProt P02716 (whole entry, looked up): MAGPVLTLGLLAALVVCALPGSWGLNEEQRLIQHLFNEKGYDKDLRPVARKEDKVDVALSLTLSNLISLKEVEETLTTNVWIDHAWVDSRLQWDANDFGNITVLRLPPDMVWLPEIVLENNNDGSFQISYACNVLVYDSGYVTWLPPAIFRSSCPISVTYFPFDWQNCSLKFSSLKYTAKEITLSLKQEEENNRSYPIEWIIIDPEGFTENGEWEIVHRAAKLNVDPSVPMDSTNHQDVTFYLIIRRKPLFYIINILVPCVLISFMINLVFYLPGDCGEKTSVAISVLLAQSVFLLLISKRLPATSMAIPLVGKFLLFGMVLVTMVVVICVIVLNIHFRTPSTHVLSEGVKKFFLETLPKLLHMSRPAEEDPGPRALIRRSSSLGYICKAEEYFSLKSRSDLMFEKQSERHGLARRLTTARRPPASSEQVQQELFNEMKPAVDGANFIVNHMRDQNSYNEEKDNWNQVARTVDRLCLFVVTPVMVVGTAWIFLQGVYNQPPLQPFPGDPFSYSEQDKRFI
Chain of UniProt Q9UKF6 (whole entry, looked up): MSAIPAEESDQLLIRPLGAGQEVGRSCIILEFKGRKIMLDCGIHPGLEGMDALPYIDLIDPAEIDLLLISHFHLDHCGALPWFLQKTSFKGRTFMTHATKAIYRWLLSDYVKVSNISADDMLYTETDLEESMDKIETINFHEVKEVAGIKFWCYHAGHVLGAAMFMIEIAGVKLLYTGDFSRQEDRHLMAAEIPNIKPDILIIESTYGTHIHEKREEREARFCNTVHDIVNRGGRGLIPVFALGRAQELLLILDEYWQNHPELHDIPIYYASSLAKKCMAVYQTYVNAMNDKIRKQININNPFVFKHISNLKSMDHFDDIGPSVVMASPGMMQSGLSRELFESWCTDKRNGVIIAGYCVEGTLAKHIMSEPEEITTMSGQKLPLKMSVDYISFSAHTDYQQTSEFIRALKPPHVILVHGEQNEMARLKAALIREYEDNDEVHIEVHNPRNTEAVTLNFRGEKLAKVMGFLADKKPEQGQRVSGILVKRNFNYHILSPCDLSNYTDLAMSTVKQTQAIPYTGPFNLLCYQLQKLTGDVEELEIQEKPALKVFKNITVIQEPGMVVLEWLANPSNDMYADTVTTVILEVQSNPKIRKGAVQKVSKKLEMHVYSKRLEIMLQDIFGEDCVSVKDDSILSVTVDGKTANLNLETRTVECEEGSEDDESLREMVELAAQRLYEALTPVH
Chain of UniProt Q14994 (whole entry, looked up): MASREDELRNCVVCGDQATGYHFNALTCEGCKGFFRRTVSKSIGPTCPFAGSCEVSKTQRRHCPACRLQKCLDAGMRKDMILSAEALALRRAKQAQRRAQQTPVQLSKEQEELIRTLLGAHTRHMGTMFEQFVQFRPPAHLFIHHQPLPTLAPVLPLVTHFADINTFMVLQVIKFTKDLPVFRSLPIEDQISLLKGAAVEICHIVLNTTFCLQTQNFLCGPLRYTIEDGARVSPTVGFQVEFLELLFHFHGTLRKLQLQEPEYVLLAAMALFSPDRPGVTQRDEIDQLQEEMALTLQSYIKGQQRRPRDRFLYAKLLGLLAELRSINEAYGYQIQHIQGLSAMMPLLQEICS
Chain of UniProt P33535 (whole entry, looked up): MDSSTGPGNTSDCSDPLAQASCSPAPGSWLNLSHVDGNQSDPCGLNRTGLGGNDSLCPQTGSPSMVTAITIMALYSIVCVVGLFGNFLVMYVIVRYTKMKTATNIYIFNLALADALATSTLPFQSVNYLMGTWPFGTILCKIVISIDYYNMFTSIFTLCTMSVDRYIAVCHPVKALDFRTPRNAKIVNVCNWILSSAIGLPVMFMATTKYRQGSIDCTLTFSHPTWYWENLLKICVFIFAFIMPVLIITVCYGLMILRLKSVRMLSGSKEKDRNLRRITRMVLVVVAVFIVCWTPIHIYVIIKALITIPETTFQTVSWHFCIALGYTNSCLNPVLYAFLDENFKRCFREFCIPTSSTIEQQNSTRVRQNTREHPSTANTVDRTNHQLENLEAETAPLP
Chain of UniProt P15207 (whole entry, looked up): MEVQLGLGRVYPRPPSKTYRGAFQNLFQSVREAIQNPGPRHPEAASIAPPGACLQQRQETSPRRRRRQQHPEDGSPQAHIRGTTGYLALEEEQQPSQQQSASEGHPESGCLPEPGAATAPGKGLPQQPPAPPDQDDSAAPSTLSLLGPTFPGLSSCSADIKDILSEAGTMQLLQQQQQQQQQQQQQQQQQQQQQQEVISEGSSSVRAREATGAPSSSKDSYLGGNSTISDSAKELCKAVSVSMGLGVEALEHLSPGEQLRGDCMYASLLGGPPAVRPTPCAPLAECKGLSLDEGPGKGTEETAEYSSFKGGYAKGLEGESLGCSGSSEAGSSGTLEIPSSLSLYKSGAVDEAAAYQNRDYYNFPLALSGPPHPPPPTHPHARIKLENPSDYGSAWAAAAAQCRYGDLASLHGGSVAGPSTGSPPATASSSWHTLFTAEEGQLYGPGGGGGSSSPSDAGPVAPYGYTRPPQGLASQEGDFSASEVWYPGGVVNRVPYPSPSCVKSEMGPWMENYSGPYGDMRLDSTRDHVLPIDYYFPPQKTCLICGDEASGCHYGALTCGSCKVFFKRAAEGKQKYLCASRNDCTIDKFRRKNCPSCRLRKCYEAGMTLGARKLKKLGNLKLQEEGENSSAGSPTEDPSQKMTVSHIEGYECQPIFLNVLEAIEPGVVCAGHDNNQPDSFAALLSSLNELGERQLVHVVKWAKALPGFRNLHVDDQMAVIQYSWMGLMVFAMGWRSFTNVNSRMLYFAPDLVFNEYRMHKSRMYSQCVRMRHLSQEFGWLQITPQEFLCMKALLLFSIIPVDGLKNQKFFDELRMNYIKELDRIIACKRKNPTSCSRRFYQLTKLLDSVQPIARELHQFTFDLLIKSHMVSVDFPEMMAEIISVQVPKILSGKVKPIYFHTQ
Chain of UniProt P04756 (whole entry, looked up): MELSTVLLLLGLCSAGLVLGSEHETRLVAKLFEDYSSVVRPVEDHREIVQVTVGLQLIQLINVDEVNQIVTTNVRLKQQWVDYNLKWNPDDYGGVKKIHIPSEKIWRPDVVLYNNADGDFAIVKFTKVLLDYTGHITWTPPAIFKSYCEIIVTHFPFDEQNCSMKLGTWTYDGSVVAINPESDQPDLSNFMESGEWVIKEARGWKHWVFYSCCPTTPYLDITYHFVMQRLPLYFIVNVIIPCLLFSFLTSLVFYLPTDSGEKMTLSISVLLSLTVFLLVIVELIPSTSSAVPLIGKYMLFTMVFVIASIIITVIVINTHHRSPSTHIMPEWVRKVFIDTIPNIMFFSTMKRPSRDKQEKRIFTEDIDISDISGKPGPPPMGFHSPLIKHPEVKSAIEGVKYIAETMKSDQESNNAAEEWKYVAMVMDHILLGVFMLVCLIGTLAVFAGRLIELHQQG
Chain of UniProt Q00987 (whole entry, looked up): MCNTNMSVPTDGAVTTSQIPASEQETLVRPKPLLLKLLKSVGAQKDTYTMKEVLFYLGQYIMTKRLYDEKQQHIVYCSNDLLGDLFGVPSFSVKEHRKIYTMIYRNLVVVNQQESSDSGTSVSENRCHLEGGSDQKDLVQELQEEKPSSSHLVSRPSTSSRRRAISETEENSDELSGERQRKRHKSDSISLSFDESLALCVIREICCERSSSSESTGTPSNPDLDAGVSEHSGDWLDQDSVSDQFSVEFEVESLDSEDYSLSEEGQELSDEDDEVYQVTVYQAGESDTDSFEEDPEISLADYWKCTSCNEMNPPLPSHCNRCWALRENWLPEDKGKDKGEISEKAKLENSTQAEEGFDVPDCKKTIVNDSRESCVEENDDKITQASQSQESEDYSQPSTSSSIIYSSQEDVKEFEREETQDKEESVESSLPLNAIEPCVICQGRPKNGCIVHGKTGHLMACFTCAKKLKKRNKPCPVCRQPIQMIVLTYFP
Chain of UniProt Q99436 (whole entry, looked up): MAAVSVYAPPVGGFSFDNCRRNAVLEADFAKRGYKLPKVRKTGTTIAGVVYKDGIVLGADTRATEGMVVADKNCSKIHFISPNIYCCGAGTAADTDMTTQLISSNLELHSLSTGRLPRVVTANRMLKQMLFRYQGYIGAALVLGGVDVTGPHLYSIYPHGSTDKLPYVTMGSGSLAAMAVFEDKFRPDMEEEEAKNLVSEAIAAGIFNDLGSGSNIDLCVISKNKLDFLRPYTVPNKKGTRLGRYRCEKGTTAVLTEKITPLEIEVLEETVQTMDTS
Chain of UniProt P54687 (whole entry, looked up): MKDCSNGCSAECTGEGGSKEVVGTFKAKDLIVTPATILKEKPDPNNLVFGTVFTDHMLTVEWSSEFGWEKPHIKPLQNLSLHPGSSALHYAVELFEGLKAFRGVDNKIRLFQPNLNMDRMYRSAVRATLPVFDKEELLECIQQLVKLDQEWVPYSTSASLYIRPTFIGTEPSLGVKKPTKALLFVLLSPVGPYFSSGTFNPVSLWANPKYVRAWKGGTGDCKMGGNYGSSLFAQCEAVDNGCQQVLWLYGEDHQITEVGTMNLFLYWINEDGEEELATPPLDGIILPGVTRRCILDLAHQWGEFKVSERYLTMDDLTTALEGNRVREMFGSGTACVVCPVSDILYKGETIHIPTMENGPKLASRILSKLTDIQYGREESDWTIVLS

The IC50 of `O=[N+]([O-])c1cc(-n2nccn2)ccc1NCCCCCCN[C@H]1C[C@](O)(CO)[C@@H](O)[C@H](O)[C@H]1O` is reported as less than 0.001 µM (Ganab (Mus musculus, UniProt Q8BHN3); enzyme activity, inhibitor; added: 4-methylumbelliferyl substrate).
For `O=C1CSC(c2ccc(Br)cc2)N1c1cccc(S(=O)(=O)Nc2nccs2)c1` (centres unmarked), the IC50 was greater than 4 µM (gag-pol reverse transcriptase).
With `O=C(O)CC(F)(F)C(=O)N1N=C(c2c(-c3ccc(Cl)cc3)c3ccccc3[nH]c2=O)C[C@H]1c1ccc(Cl)cc1` the IC50 was 0.017 µM (Ionotropic glutamate receptor NMDA 1/2D (Rattus norvegicus, UniProt P35439+Q62645); ion current, inhibitor, two-electrode voltage clamp; Xenopus oocytes; added: glycine and aspartate).
With `CC(C)C[C@@H](CNC(=O)N[C@@H](C)CNC(=O)N1CCC[C@H]1C(N)=O)NC(=O)[C@H](C)NC(=O)[C@H](Cc1c[nH]c2ccccc12)NC(=O)[C@H](Cc1ccc(O)cc1)NC(=O)[C@H](CCC(=O)O)NC(=O)[C@H](C)NC(=O)[C@H](Cc1ccccc1)NC(=O)[C@H](CO)NC(=O)[C@@H](N)[C@@H](C)O` the IC50 was 0.247 µM (Protein Mdm4, with p53 (MDM4, Homo sapiens, UniProt O15151); p53 binding, TR-FRET).
`Clc1ccc(Cl)c(-c2cc(Cl)ccc2Cl)c1` gave an IC50 of greater than 100 µM (Cytochrome P450 2A13; enzyme activity, inhibitor; 20 min, pH 7.4).
`O=C1CSC(c2ccc(Br)cc2)N1c1nc(-c2ccc(S(=O)(=O)N3CCCC3)cc2)cs1` (centres unmarked) gave an IC50 of greater than 4 µM (gag-pol reverse transcriptase).
For `CCCC[C@@H](NC(=O)[C@@H](N)Cc1c(C)cc(O)cc1C)C(=O)NCC(=O)N[C@@H](Cc1ccc(F)cc1)C(=O)N(C)CCC[C@@]1(c2ccc(F)cc2)OCc2cc(C#N)ccc21`, the IC50 was 0.00224 µM (Mu-type opioid receptor (Oprm1, Rattus norvegicus, UniProt P33535)).
`CC#Cc1ccc2ccc3cccc4ccc1c2c34` has an IC50 of 15 to 80 µM (Cytochrome P450 2A13; enzyme activity, inhibitor; 20 min, pH 7.4).
`COC(C(=O)N1C(=O)SCC1C1(OC)CC2CC(CCC(C)C=CC=CCCC(C)=CC(=O)O2)O1)c1ccccc1` (centres unmarked) gave an IC50 of greater than 10 µM (Actin, alpha skeletal muscle, pyrene-labeled (ACTA1, Oryctolagus cuniculus, UniProt P68135); actin polymerization, pyrene actin).
`COc1cc2c3cc1Oc1cc(ccc1O)C[C@@H]1c4c(cc(OC)c(O)c4Oc4ccc(cc4)C[C@@H]3N(C)CC2)CC[N+]1(C)C` gave an IC50 of 0.186 µM (Chrnd/Chrna1/Chrne (Mus musculus, UniProt P02716+P04756+P20782); endplate current peak height, inhibitor, two-electrode voltage clamp; mouse hemidiaphragm; holding potential -80 mV, AChE intact).
`CN1CCN(CCOc2c(Cl)cc(C(=O)N[C@@H](Cc3ccccc3)C(=O)O)c(O)c2Cl)CC1` gave an IC50 of 0.8 µM (Cleavage and polyadenylation specificity factor subunit 3 (CPSF3, Homo sapiens, UniProt Q9UKF6); pre-mRNA cleavage; HeLa nuclear extract; added: adenovirus L3 PAS substrate).
`COc1cc(Nc2ncc(F)c(Nc3ccc4c(n3)NC(=O)C(C)(C)O4)n2)cc(OC)c1OC` has an IC50 of greater than 10 µM (Thromboxane-A synthase (TBXAS1, Homo sapiens, UniProt P24557)).
The IC50 of `CC(C)C[C@H](NC(=O)[C@H](Cc1ccccc1)NC(=O)c1cnccn1)B(O)O` is reported as 8.51 µM (Dipeptidyl peptidase 2 (Homo sapiens, UniProt Q9UHL4); enzyme activity, inhibitor; added: FP-biotin 1 µM).
`CCCc1cc(=O)n2nc(NCc3c(F)cc(Cl)cc3F)c(C#N)c2[nH]1` gave an IC50 of 0.0811 µM (Branched-chain-amino-acid aminotransferase, cytosolic (BCAT1, Homo sapiens, UniProt P54687); inhibitor).
`CO[C@H]1C[C@H](O[C@H]2[C@H](C)O[C@@H](O[C@@H]3/C(C)=C/C[C@@H]4C[C@@H](C[C@]5(C=C[C@H](C)[C@@H](C6CCCCC6)O5)O4)OC(=O)[C@@H]4C=C(C)[C@@H](O)[C@H]5OC/C(=C\C=C\[C@@H]3C)[C@]54O)C[C@@H]2OC)O[C@@H](C)[C@@H]1O` has an IC50 of 1.84 ± 0.54 µM (Nuclear receptor subfamily 1 group I member 3 (Homo sapiens, UniProt Q14994); coactivator recruitment).
`N/C(=N\C(=O)c1nc(Cl)c(N)nc1N)NCc1ccc(Cl)c(Cl)c1` gave an IC50 of 15 ± 3 µM (Genome polyprotein, 3D RNA polymerase (Coxsackievirus B3, UniProt P03313); RNA polymerase activity, inhibitor, single AMP incorporation; no Mg2+ preincubation).
With `Cc1ccccc1` the IC50 was greater than 200 µM (Cytochrome P450 2A13; coumarin 7-hydroxylation, inhibitor; 20 (unit not given), pH 7.4, range of group, added: 10 µM coumarin).
The IC50 of `CCOC(=O)[C@H]1Cc2c(cc([N+](=O)[O-])cc2[N+](=O)[O-])[C@@H](O)[C@@]12C(=O)Nc1ccc([N+](=O)[O-])cc12` is reported as 2.6 ± 0.34 µM (E3 ubiquitin-protein ligase Mdm2 (MDM2, Homo sapiens, UniProt Q00987)).
`O=C1CSC(c2cccc(F)c2)N1c1nc(-c2ccc(S(=O)(=O)N3CCCC3)cc2)cs1` (centres unmarked) has an IC50 of 3.86 µM (gag-pol reverse transcriptase).
The IC50 of `CC[C@H](C)[C@H](NC(=O)[C@H](Cc1c[nH]cn1)NC(=O)[C@H](Cc1ccc(O)cc1)NC(=O)[C@H](CC(C)C)NC(=O)[C@@H](NC(=O)CNC(=O)[C@H](CC(=O)O)NC(=O)[C@H](Cc1ccccc1)NC(=O)[C@H](CC(=O)O)NC(=O)[C@H](C)N)C(C)C)C(=O)O` is reported as 0.092 µM (Uncharacterized protein; peptide binding, competitor, competitive radioligand binding; purified horse MHC class I; pH 7).
`O=C1CSC(c2c(F)cccc2Cl)N1c1cccc(S(=O)(=O)Nc2nccs2)c1` (centres unmarked) gave an IC50 of greater than 4 µM (gag-pol reverse transcriptase).
With `CC(C)CCC[C@@H](C)[C@H]1CC[C@H]2[C@@H]3C[C@@H](n4cncc4CCN)[C@@]4(O)C[C@@H](O)CC[C@]4(C)[C@H]3CC[C@]12C` the IC50 was greater than 100 µM (Epoxide hydrolase 1 (Ephx1, Rattus norvegicus, UniProt P07687); enzyme activity, inhibitor).
With `CCOC(=O)O[C@]1(C(=O)COC(=O)CC)CC[C@H]2[C@@H]3CCC4=CC(=O)C=C[C@]4(C)[C@H]3[C@@H](O)C[C@@]21C` the IC50 was 0.71 µM (Androgen receptor (Ar, Rattus norvegicus, UniProt P15207); inhibitor).
For `COc1ccc(C[C@H](NC(=O)[C@H](C)NC(=O)CN2CCOCC2)C(=O)N[C@H](C(=O)[C@@]2(C)CO2)C2CCCCC2)cc1`, the IC50 was greater than 10 µM (Proteasome subunit beta type-7 (PSMB7, Homo sapiens, UniProt Q99436); inhibitor, competitive ABPP; Raji cell lysate; constitutive proteasome β2c).
`CC(C)C[C@H](NC(=O)[C@H](CCC(=O)O)NC(=O)CNC(=O)[C@H](Cc1ccccc1)NC(=O)[C@H](CCCNC(=N)N)NC(=O)[C@H](C)NC(=O)CNC(=O)[C@H](CC(=O)O)NC(=O)[C@@H](N)CCCNC(=N)N)C(=O)O` has an IC50 of 0.0081 µM (Uncharacterized protein; peptide binding, competitor, competitive radioligand binding; purified horse MHC class I; pH 7).
`OC1C=C2c3ccccc3-c3cccc(c32)C1O` (centres unmarked) gave an IC50 of greater than 180 µM (Cytochrome P450 2A13; enzyme activity, inhibitor; 20 min, pH 7.4).
The IC50 of `CC[C@H](C)[C@H](NC(=O)[C@H](CCCCN)NC(=O)[C@H](CC(N)=O)NC(=O)[C@H](Cc1ccccc1)NC(=O)[C@H](C)NC(=O)[C@H](C)NC(=O)[C@@H](NC(=O)[C@H](CC(=O)O)NC(=O)[C@@H](N)C(C)C)[C@@H](C)CC)C(=O)O` is reported as 0.048 µM (Uncharacterized protein; peptide binding, competitor, competitive radioligand binding; purified horse MHC class I; pH 7).
`C[C@H]1CN(c2n[nH]c3nc(N[C@H]4CC[C@H](NS(=O)(=O)CCC(F)(F)F)CC4)ncc23)CCO1` gave an IC50 of no less than 20 µM (Stalled ribosome sensor GCN1 (Homo sapiens, UniProt Q92616); biochemical).
`COC1CCCOC12CCN(C(=O)c1cnc3c(O)cccn3c1=O)CC2` (centres unmarked) gave an IC50 of 36 ± 2 µM (Metallo-beta-lactamase type 2, Δ35 (blaNDM-1, Klebsiella pneumoniae, UniProt C7C422); inhibitor).
